Published values pooled from the literature.
Each line is one published result; not all experiments were run side by side. ± gives the spread as reported.

| Compound | system | conditions | tissue uptake |
| --- | --- | --- | --- |
| N=C(N)NCCC[C@@H]1NC(=O)[C@H](CCCCNC(=O)CNC(=O)CNC(=O)CNC(=O)CC[C@H](NC(=O)c2ccc(NN=Cc3ccccc3S(=O)(=O)O)nc2)C(=O)NCC(=O)NCC(=O)NCC(=O)NCCCC[C@@H]2NC(=O)[C@@H](Cc3ccccc3)NC(=O)[C@H](CC(=O)O)NC(=O)CNC(=O)[C@H](CCCNC(=N)N)NC2=O)NC(=O)[C@@H](Cc2ccccc2)NC(=O)[C@H](CC(=O)O)NC(=O)CNC1=O [technetium-99m labelled] | athymic nu/nu mouse, female, U-87 MG glioma xenograft, tumour | intravenous, 2 µCi, 30 min | 13.4 ± 0.98 %ID/g |
| N=C(N)NCCC[C@@H]1NC(=O)[C@H](CCCCNC(=O)CC[C@H](NC(=O)CCOCCOCCOCCOCCNC(=O)CN2CCN(CC(=O)O)CCN(CC(=O)O)CCN(CC(=O)O)CC2)C(=O)NCCCC[C@@H]2NC(=O)[C@@H](Cc3ccccc3)NC(=O)[C@H](CC(=O)O)NC(=O)CNC(=O)[C@H](CCCNC(=N)N)NC2=O)NC(=O)[C@@H](Cc2ccccc2)NC(=O)[C@H](CC(=O)O)NC(=O)CNC1=O [indium-111 labelled] | female athymic nude mice, lungs | intravenous, 3 µCi, 1 h, U-87 MG glioma xenograft | 1.91 ± 0.25 %ID/g |
| CC(C)C[C@H](NC(=O)[C@H](Cc1ccc(O)cc1)NC(=O)[C@@H](CCCNC(=N)N)NC(=O)[C@@H](CO)NC(=O)[C@H](Cc1ccccc1)NC(=O)[C@H](CC1CCCCC1)NC(=O)[C@H](CC(=O)O)NC(=O)CCC(C(=O)O)N1CCCN2CCN(CCCN(CC(=O)O)CC2)CC1)C(=O)N[C@@H](Cc1c[nH]c2ccccc12)C(=O)N[C@@H](CO)C(=O)O (stereo partly drawn) [copper-64 labelled] | female NMRI nude mice, liver | 1 h p.i. | 4.8 ± 0.7 %ID/g |
| N=C(N)NCCC[C@@H]1NC(=O)[C@H](CCCCNC(=O)CCOCCOCCOCCOCCNC(=O)CC[C@H](NC(=O)CCOCCOCCOCCOCCNC(=O)CC[C@H](NC(=O)CN2CCN(CC(=O)O)CCN(CC(=O)O)CCN(CC(=O)O)CC2)C(=O)NCCOCCOCCOCCOCCC(=O)N[C@@H](CCC(=O)NCCOCCOCCOCCOCCC(=O)NCCCC[C@@H]2NC(=O)[C@@H](Cc3ccccc3)NC(=O)[C@H](CC(=O)O)NC(=O)CNC(=O)[C@H](CCCNC(=N)N)NC2=O)C(=O)NCCOCCOCCOCCOCCC(=O)NCCCC[C@@H]2NC(=O)[C@@H](Cc3ccccc3)NC(=O)[C@H](CC(=O)O)NC(=O)CNC(=O)[C@H](CCCNC(=N)N)NC2=O)C(=O)NCCOCCOCCOCCOCCC(=O)NCCCC[C@@H]2NC(=O)[C@@H](Cc3ccccc3)NC(=O)[C@H](CC(=O)O)NC(=O)CNC(=O)[C@H](CCCNC(=N)N)NC2=O)NC(=O)[C@@H](Cc2ccccc2)NC(=O)[C@H](CC(=O)O)NC(=O)CNC1=O [indium-111 labelled] | female athymic nude mice, brain | intravenous, 3 µCi, 24 h, U-87 MG glioma xenograft | 0.08 ± 0.01 %ID/g |
| CCCC[C@H](NC(=O)CNC(=O)CNC(=O)c1ccc(NN)nc1)C(=O)N[C@H]1CC(=O)NCCCC[C@@H](C(N)=O)NC(=O)[C@H](Cc2c[nH]c3ccccc23)NC(=O)[C@H](CCCNC(=N)N)NC(=O)[C@@H](Cc2ccccc2)NC(=O)[C@H](Cc2c[nH]cn2)NC1=O [technetium-99m labelled] | C57 mouse, B16/F1 melanoma-bearing, heart | intravenous, 0.5 h | 0.84 ± 0.31 %ID/g |
| CCCC[C@H](NC(=O)CCCCCCCNC(=O)c1ccc(NN)nc1)C(=O)N[C@H]1CC(=O)NCCCC[C@@H](C(N)=O)NC(=O)[C@H](Cc2c[nH]c3ccccc23)NC(=O)[C@H](CCCNC(=N)N)NC(=O)[C@@H](Cc2ccccc2)NC(=O)[C@H](Cc2c[nH]cn2)NC1=O [technetium-99m labelled] | C57 mouse, B16/F1 melanoma, urine | intravenous, 0.037 MBq, 0.5 h | 60.2 ± 4.46 %ID |
| N=C(N)NCCC[C@@H]1NC(=O)[C@H](CCCCNC(=O)CC[C@H](NC(=O)CCOCCOCCOCCOCCNC(=O)CC[C@H](NC(=O)CN2CCN(CC(=O)O)CCN(CC(=O)O)CCN(CC(=O)O)CC2)C(=O)NCCOCCOCCOCCOCCC(=O)N[C@@H](CCC(=O)NCCCC[C@@H]2NC(=O)[C@@H](Cc3ccccc3)NC(=O)[C@H](CC(=O)O)NC(=O)CNC(=O)[C@H](CCCNC(=N)N)NC2=O)C(=O)NCCCC[C@@H]2NC(=O)[C@@H](Cc3ccccc3)NC(=O)[C@H](CC(=O)O)NC(=O)CNC(=O)[C@H](CCCNC(=N)N)NC2=O)C(=O)NCCCC[C@@H]2NC(=O)[C@@H](Cc3ccccc3)NC(=O)[C@H](CC(=O)O)NC(=O)CNC(=O)[C@H](CCCNC(=N)N)NC2=O)NC(=O)[C@@H](Cc2ccccc2)NC(=O)[C@H](CC(=O)O)NC(=O)CNC1=O [indium-111 labelled] | athymic nude mice, female, U-87 MG glioma xenograft, spleen | intravenous, 3 µCi, 72 h | 0.36 ± 0.02 %ID/g |
| CCCC[C@H](NC(=O)COCCOCCNC(=O)c1ccc(NN)nc1)C(=O)N[C@H]1CC(=O)NCCCC[C@@H](C(N)=O)NC(=O)[C@H](Cc2c[nH]c3ccccc23)NC(=O)[C@H](CCCNC(=N)N)NC(=O)[C@@H](Cc2ccccc2)NC(=O)[C@H](Cc2c[nH]cn2)NC1=O [technetium-99m labelled] | C57 mouse, female, B16/F1 melanoma, pancreas | intravenous, 0.037 MBq, 2 h | 0.08 ± 0.06 %ID/g |
| CSCC[C@H](NC(=O)[C@H](CC(C)C)NC(=O)[C@H](Cc1c[nH]cn1)NC(=O)CNC(=O)[C@@H](NC(=O)[C@H](C)NC(=O)[C@H](Cc1c[nH]c2ccccc12)NC(=O)[C@H](CCC(N)=O)NC(=O)CCCCNC(=O)CSCCSCCP(CO)CO)C(C)C)C(N)=O [technetium-99m labelled] | female CF-1 mouse, carcass | intravenous, 1 h | 10.2 %ID |
| N=C(N)NCCC[C@@H]1NC(=O)[C@H](CC(=O)NC23CNCCNCC(N)(CNCCNC2)CNCCNC3)NC(=O)[C@@H](Cc2ccccc2)NC(=O)[C@H](CC(=O)O)NC(=O)CNC1=O [copper-64 labelled] | Nu/Nu mouse, male, tumour-bearing, heart | intravenous, 10 µCi, 2 h | 0.37 ± 0.13 %ID/g |
| CSCC[C@H](NC(=O)[C@H](CC(C)C)NC(=O)[C@H](Cc1c[nH]cn1)NC(=O)CNC(=O)[C@@H](NC(=O)[C@H](C)NC(=O)[C@H](Cc1c[nH]c2ccccc12)NC(=O)[C@H](CCC(N)=O)NC(=O)CCCCCNC(=O)CNC(=O)CNC(=O)CNC(=O)CSC(C)=O)C(C)C)C(N)=O [technetium-99m labelled] | nude mouse, PC-3 xenograft, blood | 90 min | 0.2 ± 0.06 %ID/g |
| N=C(N)NCCC[C@@H]1NC(=O)[C@H](CCCCNC(=O)CCOCCOCCOCCOCCNC(=O)CN2CCN(CC(=O)O)CCN(CC(=O)O)CCN(CC(=O)O)CC2)NC(=O)[C@@H](Cc2ccccc2)NC(=O)[C@H](CC(=O)O)NC(=O)CNC1=O [indium-111 labelled] | athymic nude mice, female, U-87 MG glioma xenograft, spleen | intravenous, 3 µCi, 72 h | 0.37 ± 0.05 %ID/g |

Repeated from above:
| Compound | system | conditions | tissue uptake |
| --- | --- | --- | --- |
| CCCC[C@H](NC(=O)CCCCCCCNC(=O)c1ccc(NN)nc1)C(=O)N[C@H]1CC(=O)NCCCC[C@@H](C(N)=O)NC(=O)[C@H](Cc2c[nH]c3ccccc23)NC(=O)[C@H](CCCNC(=N)N)NC(=O)[C@@H](Cc2ccccc2)NC(=O)[C@H](Cc2c[nH]cn2)NC1=O [technetium-99m labelled] | C57 mouse, B16/F1 melanoma, urine | intravenous, 0.037 MBq, 0.5 h | 60.2 ± 4.46 %ID |
| CC(C)C[C@H](NC(=O)[C@H](Cc1ccc(O)cc1)NC(=O)[C@@H](CCCNC(=N)N)NC(=O)[C@@H](CO)NC(=O)[C@H](Cc1ccccc1)NC(=O)[C@H](CC1CCCCC1)NC(=O)[C@H](CC(=O)O)NC(=O)CCC(C(=O)O)N1CCCN2CCN(CCCN(CC(=O)O)CC2)CC1)C(=O)N[C@@H](Cc1c[nH]c2ccccc12)C(=O)N[C@@H](CO)C(=O)O (stereo partly drawn) [copper-64 labelled] | female NMRI nude mice, liver | 1 h p.i. | 4.8 ± 0.7 %ID/g |
